Assay results pooled from the literature.
Numbered parts are unrelated; each lists some results of a single study.

Sample 1 — technique: competition protein-binding microarray; form: double-stranded DNA, one strand shown; matrix: in vitro; concentration: 2 µM; together with: Cbf1 competitor, 0.05 µM; direction: higher = stronger binding; shared flanks, not repeated: … GTCTTGATTCGCTTGACGCTGCTG
Target: Phosphate system positive regulatory protein PHO4, full length, GST-tagged (PHO4, Saccharomyces cerevisiae, UniProt P07270, residues 1-312)
Notes: whole 60-bp probe, lowest competitor level
Construct (chain): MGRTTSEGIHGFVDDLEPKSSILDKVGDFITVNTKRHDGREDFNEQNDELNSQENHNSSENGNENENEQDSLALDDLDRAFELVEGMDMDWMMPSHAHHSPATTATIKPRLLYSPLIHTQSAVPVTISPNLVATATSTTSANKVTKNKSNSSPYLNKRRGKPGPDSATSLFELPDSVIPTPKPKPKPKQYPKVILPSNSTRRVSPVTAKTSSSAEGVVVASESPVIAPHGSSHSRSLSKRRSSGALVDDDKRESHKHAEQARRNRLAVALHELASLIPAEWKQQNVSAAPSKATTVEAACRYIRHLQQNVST
For `TGCGCAACAACTTGTAGGGTGGGTGTATGTCTAGAA`, the fluorescence intensity was 4650 a.u.
`AAAGCGGTAATTTGGCGTGTGGGTGCAGATATCTAT` gave a fluorescence intensity of 6540 a.u.
`ACAGGCAGGGGGTCCCACGATTCCTGTGCCGACATT` gave a fluorescence intensity of 7230 a.u.
With `CTTCTGTAAATTTGATTGGTGGGTGGACGCGCCCCG` the fluorescence intensity was 3770 a.u.
With `CTAACGAAGGTTTGCTAAGTGGGTGACAAGCCAAGT` the fluorescence intensity was 3420 a.u.
For `ATATCTCATGTAACAAACGTGAAAAAAGCGATGATT`, the fluorescence intensity was 7740 a.u.
For `CGTCCTAGTGATTGGGTGGTGGGTGCCATGAGGAAG`, the fluorescence intensity was 7910 a.u.

Sample 2 — technique: universal PBM; form: double-stranded DNA, one strand shown; matrix: in vitro; concentration: not given; direction: higher = stronger binding
Target: Sal-like protein 4, full length isoform B (SALL4, Homo sapiens, UniProt Q9UJQ4-2, residues 1-616)
Notes: 8-mer, flanks averaged, mean of replicates
Construct (chain): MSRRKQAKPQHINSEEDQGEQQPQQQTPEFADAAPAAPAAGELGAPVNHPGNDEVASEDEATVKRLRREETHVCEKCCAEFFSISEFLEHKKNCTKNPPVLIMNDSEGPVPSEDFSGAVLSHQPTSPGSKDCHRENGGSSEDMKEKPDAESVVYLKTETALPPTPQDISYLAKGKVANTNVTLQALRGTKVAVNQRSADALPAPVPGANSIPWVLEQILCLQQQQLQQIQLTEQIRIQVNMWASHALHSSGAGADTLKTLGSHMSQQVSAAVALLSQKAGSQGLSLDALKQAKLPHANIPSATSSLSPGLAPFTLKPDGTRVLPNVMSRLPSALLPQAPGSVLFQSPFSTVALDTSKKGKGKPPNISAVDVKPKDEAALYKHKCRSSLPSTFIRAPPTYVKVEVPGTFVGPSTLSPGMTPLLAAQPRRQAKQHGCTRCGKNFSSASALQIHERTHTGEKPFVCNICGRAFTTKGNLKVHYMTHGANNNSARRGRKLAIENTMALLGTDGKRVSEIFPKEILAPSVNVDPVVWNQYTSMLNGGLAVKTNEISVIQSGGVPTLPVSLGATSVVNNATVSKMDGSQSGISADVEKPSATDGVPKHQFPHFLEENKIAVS
`ACGCAAGC` gave an E-score of -0.0606.
The E-score of `CCCAATGC` is reported as -0.151.
For `CCTTTGAC`, the E-score was -0.00656.
With `ATACGGTC` the E-score was -0.0199.
With `AACTCTGA` the E-score was 0.0469.

Sample 3 — technique: protein binding microarray; form: double-stranded DNA, one strand shown; matrix: in vitro; concentration: not given; reference: not given; direction: higher = stronger binding
Target: Histone acetyltransferase KAT6A, winged helix 2, GST fusion (KAT6A, Homo sapiens, UniProt Q92794, residues 85-181)
Notes: 8-mer, flanks averaged, mean of 2 arrays, mostly near background
Construct (chain): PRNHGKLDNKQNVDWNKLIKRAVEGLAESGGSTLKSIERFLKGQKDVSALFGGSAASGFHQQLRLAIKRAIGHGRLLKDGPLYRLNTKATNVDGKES
For `GGCTACAC`, the E-score was 0.03.
`CTCATTTC` gave an E-score of 0.0355.
`CATGACGG` gave an E-score of 0.00992.
The E-score of `ATTCACGC` is reported as -0.0794.
For `AGACCAAC`, the E-score was 0.00534.
`AGCATGAA` has an E-score of 0.0216.

Mixed results
`PhoQ, residues 284 288 289 292 302 303 MLMVEA` gave a fold induction of 7.4 (PhoP, residues 12 14 15 18 19 TQAIL (Escherichia coli, UniProt P23836); Sort-seq, item: YFP reporter; E. coli; PhoQ-PhoP variant library, together with: 10 µM Mg2+; reference: high Mg2+ state, higher = stronger signaling).

For quick reference, copied from above (mixed results):
`PhoQ, residues 284 288 289 292 302 303 MLMVEA` gave a fold induction of 7.4 (PhoP, residues 12 14 15 18 19 TQAIL (Escherichia coli, UniProt P23836); Sort-seq, item: YFP reporter; E. coli; PhoQ-PhoP variant library, together with: 10 µM Mg2+; reference: high Mg2+ state, higher = stronger signaling).
